Published values from different studies.
Compare with care: the assays were run in different laboratories. ± gives the spread as reported.

| SMILES | assay | test system | setting | scale | measurement | result |
| --- | --- | --- | --- | --- | --- | --- |
| CCCC[C@H](NC(=O)[C@@H](NC(=O)[C@H](CC(=O)O)NC(=O)[C@H](CCC(N)=O)NC(=O)[C@H](CC(C)C)NC(=O)[C@H](CC(C)C)NC(=O)[C@H](CCCN)NC(=O)[C@H](CCCNC(=N)N)NC(=O)[C@H](C)NC(=O)[C@H](CO)NC(=O)[C@H](CC(C)C)NC(=O)[C@H](CCC(N)=O)NC(=O)[C@H](CC)NC(=O)[C@H](CC(C)C)NC(=O)[C@@H](NC(=O)[C@H](CCCN)NC(=O)[C@H](CCCNC(=N)N)NC(=O)[C@H](Cc1ccc(O)cc1)NC(=O)[C@H](CO)NC(=O)[C@H](CCC(N)=O)NC(=O)[C@@H](NC(=O)[C@H](Cc1ccccc1)NC(=O)[C@@H](NC(=O)[C@H](C)NC(=O)[C@H](CC(=O)O)NC(=O)[C@@H](C)NC(=O)[C@H](Cc1ccc(O)cc1)NC)[C@@H](C)CC)[C@@H](C)O)C(C)C)[C@@H](C)CC)C(=O)N[C@@H](CC(=O)O)C(=O)NCCCCNC(=N)N | GH release | rat, male, serum | subcutaneous, 3 µg/kg, 30 min | reference: reference GHRH agonist JI-38 | relative potency | 1.2 |
| CCCCCCCCCCCCCCCC(=O)NCCCCCCNC(=O)C(CCCCNC(=O)CCN1C(=O)CC(SC[C@H](NC(=O)[C@H](CCCNC(=N)N)NC(=O)CNC(=O)[C@H](CCCCN)NC(=O)[C@@H](NC(=O)[C@H](CC(C)C)NC(=O)[C@H](Cc2c[nH]c3ccccc23)NC(=O)[C@H](C)NC(=O)[C@@H](NC(=O)[C@H](Cc2ccccc2)NC(=O)[C@H](CCC(=O)O)NC(=O)[C@H](CCCCN)NC(=O)[C@H](C)NC(=O)[C@H](C)NC(=O)[C@H](CCC(N)=O)NC(=O)CNC(=O)[C@H](CCC(=O)O)NC(=O)[C@H](CC(C)C)NC(=O)[C@H](Cc2ccc(O)cc2)NC(=O)[C@H](CO)NC(=O)[C@H](CO)NC(=O)[C@@H](NC(=O)[C@H](CC(=O)O)NC(=O)[C@H](CO)NC(=O)[C@@H](NC(=O)[C@H](Cc2ccccc2)NC(=O)[C@@H](NC(=O)CNC(=O)[C@H](CCC(=O)O)NC(=O)CNC(=O)[C@@H](N)Cc2c[nH]cn2)[C@@H](C)O)[C@@H](C)O)C(C)C)[C@@H](C)CC)C(C)C)C(N)=O)C1=O)NC(=O)CCN1C(=O)CC(SC[C@H](NC(=O)[C@H](CCCNC(=N)N)NC(=O)CNC(=O)[C@H](CCCCN)NC(=O)[C@@H](NC(=O)[C@H](CC(C)C)NC(=O)[C@H](Cc2c[nH]c3ccccc23)NC(=O)[C@H](C)NC(=O)[C@@H](NC(=O)[C@H](Cc2ccccc2)NC(=O)[C@H](CCC(=O)O)NC(=O)[C@H](CCCCN)NC(=O)[C@H](C)NC(=O)[C@H](C)NC(=O)[C@H](CCC(N)=O)NC(=O)CNC(=O)[C@H](CCC(=O)O)NC(=O)[C@H](CC(C)C)NC(=O)[C@H](Cc2ccc(O)cc2)NC(=O)[C@H](CO)NC(=O)[C@H](CO)NC(=O)[C@@H](NC(=O)[C@H](CC(=O)O)NC(=O)[C@H](CO)NC(=O)[C@@H](NC(=O)[C@H](Cc2ccccc2)NC(=O)[C@@H](NC(=O)CNC(=O)[C@H](CCC(=O)O)NC(=O)CNC(=O)[C@@H](N)Cc2c[nH]cn2)[C@@H](C)O)[C@@H](C)O)C(C)C)[C@@H](C)CC)C(C)C)C(N)=O)C1=O (stereo partly shown) |  | db/db mice non-fasted | subcutaneous, 100 nmol/kg |  | duration of glucose lowering | ~36 h |
| COc1ccc2c(c1)c(CC(=O)OCOC(C)=O)c(C)n2C(=O)c1ccc(Cl)cc1 | hot plate test | BALB/c mice | 75 mg/kg, 90 min |  | latency of nociceptive response | 16.2 ± 1.4 s |
| COC1OC(C)C(OC2OC(C)C(OS(=O)(=O)O)C(OC3OC(C)C(OC4OC(C)C(OS(=O)(=O)O)C(OC5OC(C)C(OC6OC(C)C(OS(=O)(=O)O)C(OC7OC(C)C(OS(=O)(=O)O)C(OS(=O)(=O)O)C7OS(=O)(=O)O)C6OS(=O)(=O)O)C(OS(=O)(=O)O)C5OS(=O)(=O)O)C4OS(=O)(=O)O)C(OS(=O)(=O)O)C3OS(=O)(=O)O)C2OS(=O)(=O)O)C(OS(=O)(=O)O)C1OS(=O)(=O)O (stereo not shown) | clotting time | human plasma |  |  | concentration doubling APTT | 12.9 µg/mL |
| CNC(=O)N(C)c1ccc(C(=O)Nc2ccc(C)cc2C(=O)Nc2ccc(Cl)cn2)c(OC)c1 |  | human plasma |  |  | concentration doubling prothrombin time | > 30 µM |
| CC(=O)N[C@@H](CC(N)=O)C(=O)NCC(=O)N[C@@H](C)C(=O)N[C@@H](C)C(N)=O | 1H NMR | sodium phosphate buffer 50 mM | pH 5.1, 55 °C |  | rate constant succinimide to β-Asp | 0.0531 h⁻¹ |
| CCCC[C@H](NC(=O)[C@@H](NC(=O)[C@H](CC(=O)O)NC(=O)[C@H](CCC(N)=O)NC(=O)[C@H](CC(C)C)NC(=O)[C@H](CC(C)C)NC(=O)[C@H](CCCN)NC(=O)[C@H](CCCNC(=N)N)NC(=O)[C@H](C)NC(=O)[C@H](CO)NC(=O)[C@H](CC(C)C)NC(=O)[C@H](CCC(N)=O)NC(=O)[C@H](CC)NC(=O)[C@H](CC(C)C)NC(=O)[C@@H](NC(=O)[C@H](CCCN)NC(=O)[C@H](CCCNC(=N)N)NC(=O)[C@H](Cc1ccc(O)cc1)NC(=O)[C@H](CO)NC(=O)[C@H](CCC(N)=O)NC(=O)[C@@H](NC(=O)[C@H](Cc1ccccc1)NC(=O)[C@@H](NC(=O)[C@H](C)NC(=O)[C@H](CC(=O)O)NC(=O)[C@@H](C)NC(=O)[C@H](Cc1ccc(O)cc1)NC)[C@@H](C)CC)[C@@H](C)O)C(C)C)[C@@H](C)CC)C(=O)N[C@@H](CC(=O)O)C(=O)N[C@@H](CCCNC(=N)N)C(=O)NCCCCC(N)=O | GH release | male rat, serum | subcutaneous, dose not given, 30 min | reference: GHRH(1-29)NH2 | relative potency | 303 |
| Cc1nc(C)c(C=[N+]([O-])C(C)(C)C)nc1C | stereological counting | mouse MPTP model, substantia nigra | 10 mg/kg | increase | TH-positive neuron count | 17% |
| BP(=O)(OP(=O)([O-])OC[C@H]1O[C@@H](n2c[n+](C)c3c(=O)[nH]c(N)nc32)[C@H](O)[C@@H]1O)OP(=O)([O-])OC[C@H]1O[C@@H](n2c[n+](C)c3c(=O)[nH]c(N)nc32)[C@H](O)[C@@H]1O | cap-dependent translation | rabbit reticulocyte lysate | no cap pre-incubation | reference: m7GpppG over compound | IC50 ratio | 2.9 fold |
| Cc1cc2c(cc1C1(c3ncc(C(=O)O)cn3)CC1)C(C)(C)CCC2(C)C | RNA sequencing, item: Epha3 mRNA | rat, brain | dose not given, 24 h, single dose | reference: vehicle | log2 fold change | 0.007 |

For quick reference, copied from above:
| SMILES | assay | test system | setting | scale | measurement | result |
| --- | --- | --- | --- | --- | --- | --- |
| CNC(=O)N(C)c1ccc(C(=O)Nc2ccc(C)cc2C(=O)Nc2ccc(Cl)cn2)c(OC)c1 |  | human plasma |  |  | concentration doubling prothrombin time | > 30 µM |
